Assay results pooled from the literature.
± gives the spread as reported.

N=C(N)NCCC[C@@H]1NC(=O)[C@H](CCCCNC(=O)CNC(=O)CNC(=O)CNC(=O)CC[C@H](NC(=O)CNC(=O)CNC(=O)CNC(=O)CN2CCN(CC(=O)O)CCN(CC(=O)O)CCN(CC(=O)O)CC2)C(=O)NCC(=O)NCC(=O)NCC(=O)NCCCC[C@@H]2NC(=O)[C@@H](Cc3ccccc3)NC(=O)[C@H](CC(=O)O)NC(=O)CNC(=O)[C@H](CCCNC(=N)N)NC2=O)NC(=O)[C@@H](Cc2ccccc2)NC(=O)[C@H](CC(=O)O)NC(=O)CNC1=O [indium-111 labelled]
tissue uptake (female athymic nu/nu mice, eyes; intravenous, 1 h): 0.84 ± 0.13 %ID/g

CCCC[C@H](NC(=O)COCCOCCNC(=O)CN1CCN(CC(=O)O)CCN(CC(=O)O)CC1)C(=O)N[C@H]1CC(=O)NCCCC[C@@H](C(N)=O)NC(=O)[C@H](Cc2c[nH]c3ccccc23)NC(=O)[C@H](CCCNC(=N)N)NC(=O)[C@@H](Cc2ccccc2)NC(=O)[C@H](Cc2c[nH]cn2)NC1=O [copper-64 labelled]
tissue uptake (C57 mice, bone; intravenous, 0.37 MBq, 0.5 h): 2 ± 0.42 %ID/g

CN1C(=O)[C@@H](Cc2ccc(O)cc2)NC(=O)CNC(=O)[C@H](Cc2ccc3ccccc3c2)NC(=O)[C@H](CCCNC(=N)N)NC(=O)[C@H]1CCCNC(=O)c1ccc(CNC(=O)CN2CCN(CC(=O)O)CCN(CC(=O)O)CCN(CC(=O)O)CC2)cc1 [gallium-68 labelled]
absorbed dose coefficient (MIRD OLINDA/EXM dosimetry; adult male human, stomach wall; extrapolated from C57BL/6 mice): 0.012 mGy/MBq

CC(C)C[C@@H](NC(=O)[C@@H](CCC(=O)O)NC(=O)[C@@H](CC(C)C)NC(=O)[C@@H](CC(C)C)NC(=O)[C@@H](CC(C)C)NC(=O)[C@H](NC(=O)[C@@H](CCC(=O)O)NC(=O)[C@H](NC(=O)[C@H]1CCCN1C(=O)[C@@H](Cc1ccccc1)NC(=O)[C@@H](CC(C)C)NC(=O)[C@@H](Cc1c[nH]c2ccccc12)NC(=O)[C@@H](CCC(=O)O)NC(=O)[C@@H](CC(C)C)NC(=O)[C@@H](Cc1ccc(O)cc1)NC(=O)[C@@H](CCCNC(=N)N)NC(=O)[C@@H](C)NC(=O)[C@@H](Cc1c[nH]c2ccccc12)NC(=O)[C@H]1CCCN1C(=O)[C@@H](CC(N)=O)NC(=O)[C@@H](CCC(N)=O)NC(=O)[C@@H](CCC(=O)O)NC(=O)[C@@H](CCC(=O)O)NC(=O)[C@@H](CS)NC(=O)[C@@H](C)NC(=S)Nc1ccc(CC2CN(CC(=O)O)CCN(CC(=O)O)CCN2CC(=O)O)cc1)[C@H](C)O)[C@H](C)O)C(=O)O (stereo partly drawn) [copper-64 labelled]
kidney-to-large intestine ratio (female BALB/c mice, 4T1 orthotopic tumour; intravenous, 2 h; relative to: kidney over large intestine): 0.32 ± 0.07

CC(C)C[C@H](NC(=O)[C@H](Cc1ccc(O)cc1)NC(=O)[C@@H](CCCNC(=N)N)NC(=O)[C@@H](CO)NC(=O)[C@H](Cc1ccccc1)NC(=O)[C@H](CC1CCCCC1)NC(=O)[C@H](CC(=O)O)NC(=O)CN1CCN(CC(=O)O)CCN(CC(=O)O)CCN(CC(=O)O)CC1)C(=O)N[C@@H](Cc1c[nH]c2ccccc12)C(=O)N[C@@H](CO)C(=O)O [copper-64 labelled]
time intact in plasma (radio-HPLC; human, plasma; iv): ≤ 30 min

C=C1CC[C@H](OCCCNC(=O)CCOCCOCCOCCOCCOCCOCCOCCOCCOCCOCCOCCOCCOCCOCCOCCOCCOCCOCCOCCOCCOCCOCCOCCOCCOCCOCCOCCOCCOCCOCCOCCOCCOCCOCCOCCOCCNC(=O)CCN2C(=O)CC(SC[C@H](NC(=O)[C@H](Cc3ccccc3)NC(=O)[C@H](CC(N)=O)NC(=O)[C@H](Cc3c[nH]cn3)NC(=O)[C@@H](NC(=O)[C@H](CC(=O)O)NC(=O)[C@H](CCC(N)=O)NC(=O)[C@H](CC(C)C)NC(=O)[C@H](CCCCN)NC(=O)[C@H](CCCCN)NC(=O)[C@H](CCCNC(=N)N)NC(=O)[C@H](CC(C)C)NC(=O)[C@H](Cc3c[nH]c4ccccc34)NC(=O)[C@H](CCC(=O)O)NC(=O)[C@@H](NC(=O)[C@H](CCCNC(=N)N)NC(=O)[C@H](CCC(=O)O)NC(=O)[C@H](CCSC)NC(=O)[C@H](CO)NC(=O)[C@H](CC(N)=O)NC(=O)[C@H](CC(C)C)NC(=O)[C@H](Cc3c[nH]cn3)NC(=O)[C@H](CCCCN)NC(=O)CNC(=O)[C@H](CC(C)C)NC(=O)[C@H](CC(N)=O)NC(=O)[C@H](Cc3c[nH]cn3)NC(=O)[C@H](CCSC)NC(=O)[C@H](CC(C)C)NC(=O)[C@H](CCC(N)=O)NC(=O)[C@@H](NC(=O)[C@H](CCC(=O)O)NC(=O)[C@H](CO)NC(=O)[C@@H](NC(=O)[C@@H](N)CO)C(C)C)[C@@H](C)CC)C(C)C)C(C)C)C(N)=O)C2=O)C/C1=C/C=C1\CCC[C@]2(C)[C@@H]([C@H](C)CCCC(C)(C)O)CC[C@@H]12 (stereo partly drawn)
dose-normalised AUC (cynomolgus monkey; sc, 20 µg/kg every other day, 21 days; relative to: 0.7 µg/kg dose): 0.26

N=C(N)NCCC[C@@H]1NC(=O)[C@H](CCCCNC(=O)CC[C@H](NC(=O)CC[C@H](NC(=O)CN2CCN(CC(=O)O)CCN(CC(=O)O)CCN(CC(=O)O)CC2)C(=O)N[C@@H](CCC(=O)NCCCC[C@@H]2NC(=O)[C@@H](Cc3ccccc3)NC(=O)[C@H](CC(=O)O)NC(=O)CNC(=O)[C@H](CCCNC(=N)N)NC2=O)C(=O)NCCCC[C@@H]2NC(=O)[C@@H](Cc3ccccc3)NC(=O)[C@H](CC(=O)O)NC(=O)CNC(=O)[C@H](CCCNC(=N)N)NC2=O)C(=O)NCCCC[C@@H]2NC(=O)[C@@H](Cc3ccccc3)NC(=O)[C@H](CC(=O)O)NC(=O)CNC(=O)[C@H](CCCNC(=N)N)NC2=O)NC(=O)[C@@H](Cc2ccccc2)NC(=O)[C@H](CC(=O)O)NC(=O)CNC1=O [indium-111 labelled]
tissue uptake (female athymic nu/nu mice, heart; intravenous, 1 h): 1.23 ± 0.11 %ID/g

CCCC[C@H](NC(=O)CNC(=O)CNC(=O)CN1CCN(CC(=O)O)CCN(CC(=O)O)CCN(CC(=O)O)CC1)C(=O)N[C@H]1CC(=O)NCCCC[C@@H](C(N)=O)NC(=O)[C@H](Cc2c[nH]c3ccccc23)NC(=O)[C@H](CCCNC(=N)N)NC(=O)[C@@H](Cc2ccccc2)NC(=O)[C@H](Cc2c[nH]cn2)NC1=O [lutetium-177 labelled]
tissue uptake (C57 mouse, female, tumour; intravenous, 0.037 MBq, 2 h): 21.6 ± 6.27 %ID/g

CC(C)C[C@@H](NC(=O)[C@@H](CC(C)C)NC(=O)[C@@H](CC(=O)O)NC(=O)[C@@H](CC(C)C)NC(=O)[C@@H](CC(C)C)NC(=O)[C@@H](CC(C)C)NC(=O)[C@H](NC(=O)[C@@H](CC(=O)O)NC(=O)[C@H](NC(=O)[C@H]1CCCN1C(=O)[C@@H](Cc1ccccc1)NC(=O)[C@@H](CC(C)C)NC(=O)[C@@H](CC(C)C)NC(=O)[C@@H](CC(=O)O)NC(=O)[C@@H](CC(C)C)NC(=O)[C@@H](Cc1ccc(O)cc1)NC(=O)[C@@H](C)NC(=O)[C@@H](CCCNC(=N)N)NC(=O)[C@@H](Cc1c[nH]c2ccccc12)NC(=O)[C@H]1CCCN1C(=O)[C@@H](CC(N)=O)NC(=O)[C@@H](CCC(N)=O)NC(=O)[C@@H](CC(=O)O)NC(=O)[C@@H](CC(=O)O)NC(=O)[C@@H](CS)NC(=O)[C@@H](C)NC(=S)Nc1ccc(CC2CN(CC(=O)O)CCN(CC(=O)O)CCN2CC(=O)O)cc1)[C@H](C)O)[C@H](C)O)C(=O)N[C@H](Cc1c[nH]c2ccccc12)C(=O)O (stereo partly drawn) [fluorine-18 labelled]
kidney-to-large intestine ratio (female BALB/c mice, 4T1 orthotopic tumour; intravenous, 2 h; relative to: kidney over large intestine): 0.52 ± 0.15
